# Published values pooled from the literature.
# Each numbered part is a random draw from the data of one study; scales do not carry over between parts.

# Series 1
# Target: Interferon regulatory factor 7, full length, phosphomimetic (IRF7, Homo sapiens, UniProt Q92985, residues 1-503, S101K/S471D/S472D/S475D/S476D/S477D/S483D/S484D/S487D)
# Technique: protein-binding microarray
# Form: double-stranded DNA, one strand shown
# Sample: in vitro
# Tested at: 250 nM
# Notes: 60-bp whole probe
# Added: salmon DNA 0.4 mg/ml
# Relative to: random background probes
# Reading: higher = stronger binding
# Shared flanks, not repeated: GCCTAGCAC … GTCTTGATTCGCTTGACGCTGCTG
# Construct (chain): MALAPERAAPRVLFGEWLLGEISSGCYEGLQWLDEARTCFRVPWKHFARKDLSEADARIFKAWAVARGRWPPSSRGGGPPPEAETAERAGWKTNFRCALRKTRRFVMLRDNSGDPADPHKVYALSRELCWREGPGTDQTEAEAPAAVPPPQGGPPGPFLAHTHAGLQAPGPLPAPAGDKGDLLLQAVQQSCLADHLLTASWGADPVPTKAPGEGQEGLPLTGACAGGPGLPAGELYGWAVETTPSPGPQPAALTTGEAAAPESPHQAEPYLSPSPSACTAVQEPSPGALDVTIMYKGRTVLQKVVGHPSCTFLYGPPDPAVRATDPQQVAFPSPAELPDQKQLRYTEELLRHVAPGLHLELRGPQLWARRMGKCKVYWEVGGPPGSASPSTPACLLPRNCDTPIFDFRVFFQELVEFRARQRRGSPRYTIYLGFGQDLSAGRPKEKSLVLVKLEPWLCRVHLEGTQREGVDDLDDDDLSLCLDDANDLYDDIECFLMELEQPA
Sequence,log fluorescence
TTAGGTTTCCTATTGCTTTAGTGCTAG,3.43 z-score
AGAGCCATCAATATCTGCAAGTGCTAG,-0.615 z-score
GACGGTGTCGACACTGGGGACGTGCTA,-0.756 z-score
GACGAGTTCAGACTGGAGACGTGCTAG,-0.128 z-score
GACTATTTCGGGTTTCGAGACGTGCTA,4.92 z-score
GACGGACTGGGGACTAGGGACGTGCTA,-0.0626 z-score
CGGCTACCGCGGCTCCTACAGTGCTAG,-0.469 z-score

# Series 2
# Target: POU, POU domain (Salpingoeca helianthica)
# Technique: Spec-seq
# Form: double-stranded DNA, one strand shown
# Sample: in vitro
# Tested at: not given
# Notes: whole probe, mean of replicates
# Relative to: not given
# Reading: lower = stronger binding
# Shared flanks, not repeated: GAGTCGTCTCGTCAGCAC … CCGTAGAGCACTCAGGTC
# Residues (chain): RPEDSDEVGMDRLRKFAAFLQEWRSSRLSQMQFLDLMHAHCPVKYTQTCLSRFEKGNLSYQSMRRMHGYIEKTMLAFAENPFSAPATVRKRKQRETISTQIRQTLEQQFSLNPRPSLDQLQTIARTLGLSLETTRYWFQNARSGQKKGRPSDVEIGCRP
Sequence,relative binding energy [ln ratio]
ATTGCAAT,0.966
ATACCGAT,1.26
GTTCTAAT,0.709
ATGCAGTG,0.999
CGGATAAT,0.377

# Series 3
# Target: Histone acetyltransferase KAT6A, both winged helices, GST fusion (KAT6A, Homo sapiens, UniProt Q92794, residues 1-181)
# Technique: protein binding microarray
# Form: double-stranded DNA, one strand shown
# Sample: in vitro
# Tested at: not given
# Notes: 8-mer, flanks averaged, mean of 2 arrays, mostly near background
# Relative to: not given
# Reading: higher = stronger binding
# Residues (chain): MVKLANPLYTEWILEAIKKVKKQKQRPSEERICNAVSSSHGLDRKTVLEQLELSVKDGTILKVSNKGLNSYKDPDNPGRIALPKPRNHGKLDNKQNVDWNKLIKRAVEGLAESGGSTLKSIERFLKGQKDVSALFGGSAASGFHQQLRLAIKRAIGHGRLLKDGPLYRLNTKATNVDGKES
Sequence,E-score
AGCTAACC,-0.0817
ATAGATGC,-0.0476
AATTCCAT,-0.0662
CAGTCATA,-0.192
CCTCTCTC,-0.273
AGGTTCCA,-0.116
AAGGCGTG,0.104
ACACGCTG,0.0366
GGAGTAAC,-0.0195

# Further values, each from its own experiment
Molecule,target,assay,test system,setting,scale,measurement,result
"PhoQ, residues 284 288 289 292 302 303 GANMMA","PhoP, residues 12 14 15 18 19 SYFRT (Escherichia coli, UniProt P23836)","Sort-seq, refers to: YFP reporter",E. coli,"PhoQ-PhoP variant library, added: 10 µM Mg2+","relative to: high Mg2+ state, higher = stronger signaling",fold induction,0.821

# Excerpt of the above (series 3):
Sequence,E-score
ACACGCTG,0.0366
AGCTAACC,-0.0817
